Literature values, collected from citations in different studies.
Lines come from different studies, so protocols differ. Numbers after ± are the reported error.
Sequence of UniProt P33261 (whole entry, looked up): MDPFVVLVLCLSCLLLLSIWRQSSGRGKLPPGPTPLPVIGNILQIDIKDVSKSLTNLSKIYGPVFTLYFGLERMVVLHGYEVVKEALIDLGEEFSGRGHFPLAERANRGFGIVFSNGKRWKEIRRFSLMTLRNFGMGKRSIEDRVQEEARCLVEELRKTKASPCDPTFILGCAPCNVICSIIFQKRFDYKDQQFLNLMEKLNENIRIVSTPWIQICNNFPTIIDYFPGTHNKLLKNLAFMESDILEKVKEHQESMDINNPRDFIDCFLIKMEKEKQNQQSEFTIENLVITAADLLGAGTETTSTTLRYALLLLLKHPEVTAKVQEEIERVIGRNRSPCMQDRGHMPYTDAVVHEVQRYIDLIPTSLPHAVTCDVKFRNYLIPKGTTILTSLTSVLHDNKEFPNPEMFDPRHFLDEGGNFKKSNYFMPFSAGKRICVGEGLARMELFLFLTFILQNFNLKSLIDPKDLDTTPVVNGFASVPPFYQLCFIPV
Sequence of UniProt P08183 (whole entry, looked up): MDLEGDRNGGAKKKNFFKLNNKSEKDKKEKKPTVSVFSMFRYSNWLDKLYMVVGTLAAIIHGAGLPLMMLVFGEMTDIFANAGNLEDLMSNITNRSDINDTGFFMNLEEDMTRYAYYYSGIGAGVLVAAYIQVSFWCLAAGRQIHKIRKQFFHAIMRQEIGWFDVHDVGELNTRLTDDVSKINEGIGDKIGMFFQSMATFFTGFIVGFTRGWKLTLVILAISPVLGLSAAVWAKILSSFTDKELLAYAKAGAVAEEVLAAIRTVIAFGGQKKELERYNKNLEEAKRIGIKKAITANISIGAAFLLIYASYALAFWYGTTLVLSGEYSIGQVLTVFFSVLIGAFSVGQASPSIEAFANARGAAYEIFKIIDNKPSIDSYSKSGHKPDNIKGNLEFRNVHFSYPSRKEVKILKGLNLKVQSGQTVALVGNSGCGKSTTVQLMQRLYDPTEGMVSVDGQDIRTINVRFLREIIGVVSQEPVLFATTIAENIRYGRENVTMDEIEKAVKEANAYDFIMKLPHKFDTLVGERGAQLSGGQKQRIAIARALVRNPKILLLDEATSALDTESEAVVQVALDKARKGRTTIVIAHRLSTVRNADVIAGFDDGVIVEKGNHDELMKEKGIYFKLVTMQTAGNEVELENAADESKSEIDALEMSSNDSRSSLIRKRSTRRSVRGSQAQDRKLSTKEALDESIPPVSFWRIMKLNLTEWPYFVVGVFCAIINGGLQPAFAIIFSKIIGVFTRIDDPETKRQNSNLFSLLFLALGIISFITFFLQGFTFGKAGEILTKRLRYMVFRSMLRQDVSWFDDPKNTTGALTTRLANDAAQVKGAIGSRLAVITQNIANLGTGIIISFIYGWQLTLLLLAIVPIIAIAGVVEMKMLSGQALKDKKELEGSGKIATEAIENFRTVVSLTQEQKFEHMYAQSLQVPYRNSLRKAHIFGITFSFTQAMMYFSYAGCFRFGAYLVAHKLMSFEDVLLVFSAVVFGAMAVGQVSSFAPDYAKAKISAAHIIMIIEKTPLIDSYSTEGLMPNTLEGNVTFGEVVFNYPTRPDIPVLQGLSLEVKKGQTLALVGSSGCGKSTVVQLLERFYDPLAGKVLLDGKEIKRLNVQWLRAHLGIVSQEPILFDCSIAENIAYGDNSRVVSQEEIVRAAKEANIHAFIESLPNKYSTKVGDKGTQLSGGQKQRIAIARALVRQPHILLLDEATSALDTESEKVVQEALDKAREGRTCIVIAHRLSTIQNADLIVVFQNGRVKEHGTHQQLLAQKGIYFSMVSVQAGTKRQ
Sequence of UniProt P05177 (whole entry, looked up): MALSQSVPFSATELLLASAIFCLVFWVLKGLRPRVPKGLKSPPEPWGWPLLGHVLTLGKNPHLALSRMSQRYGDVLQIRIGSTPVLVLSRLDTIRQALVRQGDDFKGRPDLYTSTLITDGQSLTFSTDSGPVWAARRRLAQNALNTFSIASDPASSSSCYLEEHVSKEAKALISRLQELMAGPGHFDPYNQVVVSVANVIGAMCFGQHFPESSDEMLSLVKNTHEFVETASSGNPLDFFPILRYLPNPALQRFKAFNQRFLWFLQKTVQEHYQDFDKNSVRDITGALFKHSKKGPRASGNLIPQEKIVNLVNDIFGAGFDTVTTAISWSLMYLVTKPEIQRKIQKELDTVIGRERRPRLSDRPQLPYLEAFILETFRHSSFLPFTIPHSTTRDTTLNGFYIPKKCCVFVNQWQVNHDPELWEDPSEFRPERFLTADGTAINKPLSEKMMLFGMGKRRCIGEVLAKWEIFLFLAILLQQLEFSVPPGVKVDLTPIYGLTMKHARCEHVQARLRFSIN

SMILES | target or system | test | system | setting | endpoint | value
O=C1c2ccccc2-c2c1c1ccc([N+](=O)[O-])cc1c(=O)n2C[C@H](O)[C@@H](O)[C@H](O)[C@H](O)CO | SF-539 | cell growth | – | CNS cancer panel | GI50 | 2.61 µM
CC(C)(C)C1=CC(=NNC(=O)c2ccncc2)C=C(C(C)(C)C)C1=O | Salmonella typhimurium | Ames test | TA100 | concentration not given | mutagenicity | negative
CC(=O)O[C@H]1C2=C(C(=O)C(OC(=O)c3ccc(C)cc3)=C(C(C)C)C2=O)[C@@]2(C)CCCC(C)(C)[C@@H]2[C@@H]1O | HL-60 | cell growth | – | – | GI50 | ≤ 5 µM
Cc1ccccc1-c1cc(N2CC[N+](C)([O-])CC2)ncc1N(C)C(=O)C(C)(C)c1cc(C(F)(F)F)cc(C(F)(F)F)c1 | – | – | healthy volunteers, plasma | oral, 450 mg, single dose, added: palonosetron 0.75 mg | Tmax | 4.39 h
O=C1c2ccccc2-c2c1c1ccc([N+](=O)[O-])cc1c(=O)n2C[C@H](O)CO | SN12C | cell growth | – | renal cancer panel | GI50 | 0.241 µM
C=C[C@@H]1C[C@]1(NC(=O)[C@@H]1C[C@@H](Oc2cc(-c3ccccc3)nc3cc(OC)ccc23)CN1C(=O)[C@@H](NC(=O)OC(C)(C)C)C(C)(C)C)C(=O)NS(=O)(=O)C1CC1 | – | – | rat | oral, 20 mg/kg oral, 5 mg/kg iv | oral bioavailability | 9%
CC(=O)N1CCC(NC(=O)NC23CC4CC(C)(CC(C2)c2ccccc24)C3)CC1 | Cytochrome P450 1A2 (CYP1A2, Homo sapiens, UniProt P05177) | – | – | 10 µM | inhibition | 9 ± 1%
CN1CCC(C)(C)c2cc3c(-c4ccc(C(=S)N5CCCCC5)s4)c4ccc(=[N+](C)C)cc-4sc3cc21 | ABCB1 (Homo sapiens, UniProt P08183) | substrate | – | no inhibitor | cell-associated fraction | 34 ± 3%
CC(=O)O[C@H]1C2=C(C(=O)C(O)=C(C(C)C)C2=O)[C@@]2(C)CCCC(C)(C)[C@@H]2[C@@H]1OC(=O)c1ccc([N+](=O)[O-])cc1 | MOLT-3 | – | – | – | GI50 | ≤ 5 µM
COCCOCCOCCOCCC(=O)NCc1cc(CNC(=O)CCOCCOCCOCCOC)cc(-c2cc3cc4nc(c(OC)c5[nH]c(cc6nc(cc2[nH]3)CC6(C)C)cc5-c2cc(CNC(=O)CCOCCOCCOCCOC)cc(CNC(=O)CCOCCOCCOCCOC)c2)CC4(C)C)c1 | – | – | DMF | room temperature | kic^−1 | 9 ns
CCC(=O)OC1=C(C(C)C)C(=O)C2=C(C1=O)[C@@]1(C)CCCC(C)(C)[C@@H]1[C@H](OC(=O)CC)[C@H]2OC(C)=O | MOLT-3 | – | – | – | GI50 | 10 to 30 µM
Cc1ccccc1-c1cc(N2CCNCC2)ncc1N(C)C(=O)C(C)(C)c1cc(C(F)(F)F)cc(C(F)(F)F)c1 | – | – | cancer patients, plasma | oral, dose not given, netupitant-palonosetron fixed combination, added: cyclophosphamide 500-1000 mg/m^2 IV | AUC(0-inf) | 5990 ng·h/mL
CC(=O)O[C@H]1C2=C(C(=O)C(OC(=O)c3ccc(Cl)cc3)=C(C(C)C)C2=O)[C@@]2(C)CCCC(C)(C)[C@@H]2[C@@H]1OC(=O)c1ccc(Cl)cc1 | MEL1 | – | – | – | GI50 | > 30 µM
CN1CCN(c2cc(-c3ccccc3CO)c(N(C)C(=O)C(C)(C)c3cc(C(F)(F)F)cc(C(F)(F)F)c3)cn2)CC1 | – | – | healthy volunteers, plasma | oral, dose not given, netupitant-palonosetron, fasted | Tmax | 13.9 h
CC(C)C1=C(O)C(=O)C2=C(C1=O)[C@H](OC=O)[C@@H](O)[C@H]1C(C)(C)CCC[C@]21C | MCF7 | cell growth | – | – | GI50 | 5 to 10 µM
Cc1cc(N2CC[C@@](C#N)(C3(C)CC3)C2=O)cc(C(=O)NCc2cc(F)cc(-c3cnn(C)c3)c2)n1 | ARPE-19 | cytotoxicity | – | – | CC50 | 0.295 µM
CC(=O)O[C@H]1C2=C(C(=O)C(OC(=O)c3ccc(Cl)cc3)=C(C(C)C)C2=O)[C@@]2(C)CCCC(C)(C)[C@@H]2[C@@H]1O | MEL1 | – | – | – | GI50 | ≤ 5 µM
COc1ccc(Nc2nccc(-c3c[nH]nc3-c3cccnc3)n2)cc1 | CYP2C19 (Homo sapiens, UniProt P33261) | – | – | 10 µM | inhibition | 30%
